Published values collected from several papers.
Protocols differ between the studies behind these lines. ± gives the spread as reported.

With `Cc1nc(Nc2ncc(C(=O)Nc3c(C)cccc3Cl)s2)cc(N2CCN(CCO)CC2)n1` the half-life was 4.38 ± 1.22 h (Sprague-Dawley rat, female, plasma; intraperitoneal, 5 mg/kg, with: rosiglitazone co-dosed).
`Cc1nc2cccc(OCC(C)(C)C(=O)NC(C)C)c2c(N)c1C(=O)O` has a half-life of 1.21 h (male Sprague-Dawley rat, plasma; oral gavage, 10 mg/kg, day 1).
For `O=C(O)C[C@H](O)C[C@H](O)/C=C/c1c(C2CC2)nc2ccccc2c1-c1ccc(F)cc1`, the half-life was 2.98 ± 0.62 h (male Sprague-Dawley rat (wild type), plasma; oral, 5 mg/kg).
The half-life of `Cn1nnc2c(C(N)=O)ncn2c1=O` is reported as 1.9 h (male athymic rat, intracranial U87 glioma, tumour extracellular fluid; oral, 50 mg/kg, recovery-corrected microdialysis, with: before cediranib).
With `CCc1oc2ccc(OC)cc2c1C(=O)c1cc(Br)c(O)c(Br)c1` the half-life was 1.3 ± 0.1 h (Sprague-Dawley rats, male, whole blood; intravenous, 0.5 mg/kg).
`NC(=O)N1c2ccccc2C=Cc2ccccc21` gave a half-life of 3.8 h (rat, Sprague Dawley, both sexes, plasma; oral, 10 mg/kg, alone).
For `NC(=O)c1cnc2[nH]ccc2c1N[C@@H]1[C@@H]2CC3C[C@H]1C[C@@](O)(C3)C2`, the half-life was 11.2 h (Japanese, moderate hepatic impairment, plasma; oral, 150 mg single dose, mean).
The half-life of `CC(C)C[C@H]1C(=O)N2CCC[C@H]2[C@]2(O)O[C@](NC(=O)[C@@H]3C=C4c5cccc6[nH]c(Br)c(c56)C[C@H]4N(C)C3)(C(C)C)C(=O)N12` is reported as 0.401 ± 0.0783 h (male Sprague-Dawley rats, plasma; intravenous, 0.1 mg/kg, with: DAL 1.7 mg/kg plus HAL 0.7 mg/kg).
`CC(C)=CCC[C@](C)(O[C@@H]1O[C@H](CO)[C@@H](O)[C@H](O)[C@H]1O)[C@H]1CC[C@]2(C)[C@@H]1[C@H](O)C[C@@H]1[C@@]3(C)CC[C@H](O)C(C)(C)[C@@H]3[C@@H](O[C@@H]3O[C@H](CO)[C@@H](O)[C@H](O)[C@H]3O)C[C@]12C` gave a half-life of 32.2 ± 4.1 h (Sprague Dawley rat, male, plasma; oral, 25 mg/kg, white ginseng extract).
`CCN1CCN(c2ccc(Nc3cc(N(C)C(=O)Nc4c(Cl)c(OC)cc(OC)c4Cl)ncn3)cc2)CC1` has a half-life of 3.41 h (LC-MS/MS; juvenile female Crl:WI(Han) rats, plasma; oral gavage, 1.0 mg/kg/day, postnatal day 17).
For `O=C(/C=C/c1ccc(O)c2c1[C@H](C(=O)O)[C@@H](c1ccc(O)c(O)c1)O2)O[C@H](Cc1ccc(O)c(O)c1)C(=O)O`, the half-life was 4.26 ± 7.35 h (UPLC-MS/MS; Wistar rat, microcirculation dysfunction model, plasma; oral, 100 mg/kg Salvia miltiorrhiza stem-leaf extract FT).
With `CC(C)=CCC[C@](C)(O[C@@H]1O[C@H](CO)[C@@H](O)[C@H](O)[C@H]1O)[C@H]1CC[C@]2(C)[C@@H]1[C@H](O)C[C@@H]1[C@@]3(C)CC[C@H](O)C(C)(C)[C@@H]3[C@@H](O[C@@H]3O[C@H](CO)[C@@H](O)[C@H](O)[C@H]3O[C@@H]3O[C@@H](C)[C@H](O)[C@@H](O)[C@H]3O)C[C@]12C` the half-life was 3.2 ± 2.9 h (Sprague Dawley rats, male, plasma; oral, 45 mg/kg, aqueous solution, with: co-dosed pure ginsenoside mixture).
With `CCc1oc2ccccc2c1C(=O)c1cc(Br)c(O)c(Br)c1` the half-life was 1 h (Sprague-Dawley rats, male, whole blood; intravenous, 0.5 mg/kg).
`CC(C)=CCC[C@](C)(O[C@@H]1O[C@H](CO)[C@@H](O)[C@H](O)[C@H]1O)[C@H]1CC[C@]2(C)[C@@H]1[C@H](O)C[C@@H]1[C@@]3(C)CC[C@H](O[C@@H]4O[C@H](CO)[C@@H](O)[C@H](O)[C@H]4O[C@@H]4O[C@H](CO)[C@@H](O)[C@H](O)[C@H]4O)C(C)(C)[C@@H]3CC[C@]12C` gave a half-life of 32.5 ± 6.2 h (Sprague Dawley rat, male, plasma; oral, 42 mg/kg, red ginseng extract).
The half-life of `O=C(/C=C/c1ccc(O)c(O)c1)O[C@H](Cc1ccc(O)c(O)c1)C(=O)O` is reported as 13.2 ± 21 h (UPLC-MS/MS; Wistar rat, microcirculation dysfunction model, plasma; oral, 100 mg/kg Salvia miltiorrhiza stem-leaf extract FT).
`CCC[C@@]1(CCc2ccccc2)CC(O)=C([C@H](CC)c2cccc(NS(=O)(=O)c3ccc(C(F)(F)F)cn3)c2)C(=O)O1` gave a half-life of 4.11 ± 0.4 h (Sprague Dawley rat, male, plasma; oral, 5 mg/kg, long-chain triglyceride formulation).
For `COc1cccc(-c2n[nH]c(SCc3ccccn3)n2)c1OC`, the half-life was 2.56 to 3.05 h (Sprague-Dawley rat, both sexes, plasma; oral, 100 mg/kg).
`CCc1cc2c(cc1N1CCC(N3CCOCC3)CC1)C(C)(C)c1[nH]c3cc(C#N)ccc3c1C2=O` gave a half-life of 26.9 h (moderate hepatic impairment patients, plasma, total; oral, 300 mg single dose, fed).
With `CC(C)=CCC[C@](C)(O[C@@H]1O[C@H](CO[C@@H]2O[C@H](CO)[C@@H](O)[C@H](O)[C@H]2O)[C@@H](O)[C@H](O)[C@H]1O)[C@H]1CC[C@]2(C)[C@@H]1[C@H](O)C[C@@H]1[C@@]3(C)CC[C@H](O[C@@H]4O[C@H](CO)[C@@H](O)[C@H](O)[C@H]4O[C@@H]4O[C@H](CO)[C@@H](O)[C@H](O)[C@H]4O)C(C)(C)[C@@H]3CC[C@]12C` the half-life was 15.5 ± 1.58 h (Sprague Dawley rats, plasma; oral, 100 mg/kg, control group sterile water).
The half-life of `CC(C)=CCC[C@](C)(O[C@@H]1O[C@H](CO[C@@H]2O[C@H](CO)[C@@H](O)[C@H](O)[C@H]2O)[C@@H](O)[C@H](O)[C@H]1O)[C@H]1CC[C@]2(C)[C@@H]1[C@H](O)C[C@@H]1[C@@]3(C)CC[C@H](O[C@@H]4O[C@H](CO)[C@@H](O)[C@H](O)[C@H]4O[C@@H]4O[C@H](CO)[C@@H](O)[C@H](O)[C@H]4O)C(C)(C)[C@@H]3CC[C@]12C` is reported as 13.7 ± 7.1 h (Sprague Dawley rats, male, plasma; oral, 86 mg/kg, aqueous solution, with: co-dosed pure ginsenoside mixture).
For `O=C(O)/C=C/c1ccc(O)c(O)c1`, the half-life was 7.43 ± 6.32 h (UPLC-MS/MS; Wistar rat, microcirculation dysfunction model, plasma; oral, 100 mg/kg Salvia miltiorrhiza stem-leaf extract FS).
`CCc1oc2cc(O)ccc2c1C(=O)c1cc(Br)c(O)c(Br)c1` gave a half-life of 4 ± 1.4 h (male Sprague-Dawley rat, whole blood; intravenous, 0.5 mg/kg).
For `CCCC[C@H](NC(C)=O)C(=O)N[C@H]1CCC(=O)NC[C@@H](C(=O)N[C@@H](Cc2c[nH]c3ccccc23)C(N)=O)NC(=O)[C@H](CCCNC(=N)N)NC(=O)[C@@H](Cc2ccccc2)NC(=O)[C@H](Cc2c[nH]cn2)NC1=O`, the half-life was 6.12 h (CD Sprague Dawley rat, male, plasma; subcutaneous, 5.0 mg/kg daily, day 1).
`O=C(/C=C/c1ccc(O)c(O)c1/C=C/c1ccc(O)c(O)c1)O[C@H](Cc1ccc(O)c(O)c1)C(=O)O` has a half-life of 9.26 ± 14 h (UPLC-MS/MS; Wistar rat, microcirculation dysfunction model, plasma; oral, 100 mg/kg Salvia miltiorrhiza stem-leaf extract FT).
